Assay results pooled from the literature.
Each numbered part is a random draw from the data of one study; scales do not carry over between parts.

Sample 1
Target: Prothrombin, mature alpha-thrombin (F2, Homo sapiens, UniProt P00734)
Technique: aptamer microarray, sandwich
Molecule type: DNA with 2'F-ANA
Matrix: in vitro
Tested at: 200 nM
Notes: whole 15-mer aptamer, many near background
Added: Cy3 exosite-II aptamer, 400 nM
Reading: higher = stronger binding
Oligonucleotide: GGTTGGTGTGGTTGG
Modification | mean fluorescence intensity
2'F-ANA at 4 5 7 11 15 | 56 a.u.
2'F-ANA at 2 3 6 8 9 11 15 | 627 a.u.
2'F-ANA at 1 2 5 6 8 9 10 11 12 15 | 53.9 a.u.
2'F-ANA at 2 4 8 11 14 15 | 97.7 a.u.
2'F-ANA at 2 3 6 7 11 13 | 591 a.u.
2'F-ANA at 2 4 7 10 11 12 14 15 | 67.6 a.u.
2'F-ANA at 2 5 6 13 14 | 69.8 a.u.
2'F-ANA at 2 3 4 7 8 9 11 13 14 | 244 a.u.
2'F-ANA at 6 7 9 11 12 15 | 586 a.u.
2'F-ANA at 2 4 6 8 10 11 13 15 | 165 a.u.
2'F-ANA at 4 9 12 | 560 a.u.
2'F-ANA at 2 4 6 7 8 10 11 12 13 14 | 83.9 a.u.
2'F-ANA at 3 5 8 12 13 14 | 62.4 a.u.
2'F-ANA at 3 4 6 7 9 10 13 14 | 191 a.u.
2'F-ANA at 5 6 7 | 82.4 a.u.
2'F-ANA at 2 9 13 14 15 | 119 a.u.
2'F-ANA at 1 2 5 6 8 9 10 11 12 13 14 15 | 49 a.u.
2'F-ANA at 3 5 6 9 11 13 | 86.6 a.u.
2'F-ANA at 1 4 5 6 7 8 12 14 15 | 49.8 a.u.
2'F-ANA at 1 3 6 7 9 10 12 15 | 108 a.u.
2'F-ANA at 1 3 4 7 8 11 14 15 | 79.3 a.u.
2'F-ANA at 2 5 8 9 11 12 14 15 | 47.1 a.u.
2'F-ANA at 2 3 5 7 10 11 12 14 | 50.3 a.u.
2'F-ANA at 1 2 3 4 5 10 13 14 | 51 a.u.
2'F-ANA at 2 5 8 9 13 14 | 45.6 a.u.

Sample 2
Target: Histone acetyltransferase KAT6A, both winged helices, GST fusion (KAT6A, Homo sapiens, UniProt Q92794, residues 1-181)
Technique: protein binding microarray
Molecule type: double-stranded DNA, one strand shown
Matrix: in vitro
Tested at: not given
Notes: 8-mer, flanks averaged, mean of 2 arrays, mostly near background
Relative to: not given
Reading: higher = stronger binding
Target sequence (chain): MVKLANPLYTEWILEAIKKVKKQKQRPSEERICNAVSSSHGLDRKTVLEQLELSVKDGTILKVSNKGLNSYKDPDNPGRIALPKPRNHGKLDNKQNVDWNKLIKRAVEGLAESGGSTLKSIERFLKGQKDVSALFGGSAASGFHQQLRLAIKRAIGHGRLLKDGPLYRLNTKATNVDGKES
Oligonucleotide | E-score
GATGCACC | 0.0102
CACGACTC | -0.247
AATGGAAC | -0.0579
CAGACTGG | -0.211
AATGATCT | -0.102
GTATCTTA | -0.0308
CGAGGGAG | -0.136
CCATGCTC | -0.172
CCAAATGA | -0.151
CCGACCGG | 0.218
AATAGAAT | -0.196
CGTGACCA | -0.00985
AATCCTCA | -0.273
AGTTTCGG | 0.0505
ACCCTAGC | -0.0678
CAGTTACG | 0.145
ATGTGTGA | -0.152
AGTGGATC | -0.129
GATTTGCA | -0.125
TTCGTAAA | -0.034
ACTGCAGG | -0.159
CCGTTTCC | 0.215
ATAATCAT | -0.0381
CAAATGAA | -0.122

Sample 3
Target: Cyclic AMP-dependent transcription factor ATF-1 (ATF1, Homo sapiens, UniProt P18846, residues 1-271, full length assumed)
Technique: protein-binding microarray
Molecule type: double-stranded DNA, one strand shown
Matrix: in vitro
Tested at: not given
Notes: k-mer, scored over probes, only values ≥0.25
Reading: higher = stronger binding
Residues (chain): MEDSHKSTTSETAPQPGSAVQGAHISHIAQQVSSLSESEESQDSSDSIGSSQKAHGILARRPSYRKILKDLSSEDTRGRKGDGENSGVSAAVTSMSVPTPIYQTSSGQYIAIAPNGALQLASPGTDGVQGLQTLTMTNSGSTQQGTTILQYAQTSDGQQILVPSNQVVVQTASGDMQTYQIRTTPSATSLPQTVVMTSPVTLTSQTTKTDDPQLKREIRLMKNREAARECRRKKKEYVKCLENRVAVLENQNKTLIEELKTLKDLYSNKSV
Oligonucleotide | E-score
CAACCAC | 0.275
CTGTCAC | 0.277
ATACCAC | 0.269
CCTTACG | 0.27
GCATCAC | 0.337
GATGACA | 0.344
CCGTCAC | 0.441
AGACGTA | 0.32
ACGCAAT | 0.324
CACCAAC | 0.262
AACGCGT | 0.288
ATACGTC | 0.422
ACGTACA | 0.344
ATCGTCA | 0.433
ATTTACG | 0.277
GACGAAA | 0.311
GAACGTA | 0.296

Sample 4
Target: Sal-like protein 4, full length isoform A (SALL4, Homo sapiens, UniProt Q9UJQ4, residues 1-1053)
UniProt Q9UJQ4, sequence (whole entry, looked up): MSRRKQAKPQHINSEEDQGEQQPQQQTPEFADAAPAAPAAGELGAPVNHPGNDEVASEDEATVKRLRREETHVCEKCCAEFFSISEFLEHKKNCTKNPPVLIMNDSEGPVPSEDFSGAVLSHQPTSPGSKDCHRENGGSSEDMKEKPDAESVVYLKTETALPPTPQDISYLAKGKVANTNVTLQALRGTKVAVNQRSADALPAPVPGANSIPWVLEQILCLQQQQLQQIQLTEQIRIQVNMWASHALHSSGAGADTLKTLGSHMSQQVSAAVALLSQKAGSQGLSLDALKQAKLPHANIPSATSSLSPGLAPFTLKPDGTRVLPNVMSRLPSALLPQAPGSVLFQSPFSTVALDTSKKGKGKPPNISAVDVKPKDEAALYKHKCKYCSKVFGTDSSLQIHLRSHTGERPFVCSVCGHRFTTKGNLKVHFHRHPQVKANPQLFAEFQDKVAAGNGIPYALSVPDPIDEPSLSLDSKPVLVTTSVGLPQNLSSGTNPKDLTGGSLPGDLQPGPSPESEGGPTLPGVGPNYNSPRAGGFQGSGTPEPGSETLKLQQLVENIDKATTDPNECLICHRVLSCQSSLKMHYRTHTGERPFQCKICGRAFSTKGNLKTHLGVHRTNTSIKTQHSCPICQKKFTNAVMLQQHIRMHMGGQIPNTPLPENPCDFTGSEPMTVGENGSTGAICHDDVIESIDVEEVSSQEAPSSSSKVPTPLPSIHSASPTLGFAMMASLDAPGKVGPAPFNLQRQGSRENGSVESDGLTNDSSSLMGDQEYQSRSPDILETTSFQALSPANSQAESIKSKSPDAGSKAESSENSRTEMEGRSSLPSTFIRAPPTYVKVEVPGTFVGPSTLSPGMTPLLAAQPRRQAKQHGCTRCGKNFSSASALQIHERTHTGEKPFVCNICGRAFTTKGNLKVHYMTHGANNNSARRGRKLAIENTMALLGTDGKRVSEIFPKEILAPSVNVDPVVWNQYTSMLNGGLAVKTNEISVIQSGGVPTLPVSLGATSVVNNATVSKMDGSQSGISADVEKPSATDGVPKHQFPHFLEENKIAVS
Technique: universal PBM
Molecule type: double-stranded DNA, one strand shown
Matrix: in vitro
Tested at: 600 nM
Notes: 8-mer, flanks averaged, mean of replicates
Reading: higher = stronger binding
Oligonucleotide | E-score
GTTGACTA | 0.0737
ACCAGTAA | 0.209
CGTTCAAA | 0.0255
CTGGGAAG | -0.176
CTACTTTA | 0.144
ATCCCCTA | 0.0358
AGGGGGTA | -0.153
TGATACCA | 0.0785
CCCCCGGC | -0.416
GCTTGTAC | 0.0132
AATTTCGT | 0.251
GACATTCC | -0.0558
CCTTTTAC | 0.116
GCGAGTGA | -0.156
GCAACACA | 0.0134
AAGGGGAT | -0.00933
GTACAACA | 0.191
CCGACGTC | -0.295
TTGGGAAA | 0.0896
ACTCTCAA | 0.137

Sample 5
Target: PABPC1L2, full length, GST fusion (mouse, UniProt A0ABA7IW68)
Technique: RNAcompete
Molecule type: RNA
Matrix: in vitro
Tested at: 20 nM
Notes: 7-mer, probes averaged, single round
Relative to: mean of 7-mers
Reading: higher = stronger binding
Residues (chain): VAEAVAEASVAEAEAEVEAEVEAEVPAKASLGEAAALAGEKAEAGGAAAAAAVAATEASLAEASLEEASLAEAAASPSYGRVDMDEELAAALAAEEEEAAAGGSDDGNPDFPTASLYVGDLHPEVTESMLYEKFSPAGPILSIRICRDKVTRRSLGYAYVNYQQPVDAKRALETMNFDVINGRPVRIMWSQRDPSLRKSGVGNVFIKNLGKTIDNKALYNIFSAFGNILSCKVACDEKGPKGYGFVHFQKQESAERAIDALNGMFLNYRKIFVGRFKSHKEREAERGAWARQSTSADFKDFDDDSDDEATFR
Oligonucleotide | 7-mer Z-score
GAGAACG | 0.0932
GCCAUCC | -0.184
UUGACGC | -0.211
CAGCCUC | -0.316
UCUAAAG | 0.0932
GCCGAAA | 0.526
AAAUCCU | 0.265
UAAUGCA | 0.00254
AUCCGGG | 0.157
AGAGCUG | -0.142
GUAACCC | -0.289
UGGGCUA | 0.017
GUUGCCA | -0.0355
ACUUCAG | -0.157
UAUUAGC | -0.202
CCGUAGC | -0.264

Sample 6
Target: Fragile X messenger ribonucleoprotein 1, C-terminal low-complexity region (Fmr1, Mus musculus, UniProt P35922)
Technique: RNA Bind-n-Seq
Molecule type: RNA
Matrix: in vitro
Tested at: 200 nM
Notes: whole 134-nt RNA, ends assumed
Added: 150 mM LiCl
Relative to: input library
Reading: higher = stronger binding
Library: 7-deaza-guanosine replaces G
Shared flanks, not repeated: GGGAGUUCUACAGUCCGACGAUC … UGGAAUUCUCGGGUGUCAAGG
Oligonucleotide | log2 enrichment
GUCCUGUGCUACACAUCGUAUGUACCGAAUCGGGGCCCCGGGGCCCCGGGCCCCGGGGAAAGUAUUAUGUUACGCCGUUCGGAUCUGCAC | -0.543
UGUGCUACACAUCGUAUGUACCGAAUCGGGGAAAAAGGGGUUUUUUUGGGGAAAAAAAGGGGAAAGUAUUAUGUUACGCCGUUCGGAUCU | -0.326
CAAGUCCUGUGCUACACAUCGUAUGUACCGAAUCGGUUUGGAAAGGUUUUUUUGGAAAGUAUUAUGUUACGCCGUUCGGAUCUGCACUUC | -1.63
AAGUCCUGUGCUACACAUCGUAUGUACCGAAUCGGAAAAAGGUUUUUUUGGUUUGGAAAGUAUUAUGUUACGCCGUUCGGAUCUGCACUU | -3.76
UCCUGUGCUACACAUCGUAUGUACCGAAUCGGGGAAAAAGGGGAAAGGGGAAAAAGGGGAAAGUAUUAUGUUACGCCGUUCGGAUCUGCA | -0.106
CUGUGCUACACAUCGUAUGUACCGAAUCGGAAAAAAAGGGGAAAAAAAGGGGAAAAAAAGGAAAGUAUUAUGUUACGCCGUUCGGAUCUG | -0.0218
AAGUCCUGUGCUACACAUCGUAUGUACCGAAUCGGCCCCCGGCCCCCGGGCCCCCGGAAAGUAUUAUGUUACGCCGUUCGGAUCUGCACU | -0.706
AGUCCUGUGCUACACAUCGUAUGUACCGAAUCGUGUGUGUGUGUGUGUGUGUGUGUGAAAGUAUUAUGUUACGCCGUUCGGAUCUGCACU | -0.148
UGGCCCUGGUGGCAUGCGGGGAGGAAGAGGUGGCCUCAUGAAUCGUGGUGGUCCCGGUGGAAUGUUCAGAGGUGGCCGUGGUGGAGACAG | -0.253
GUCCUGUGCUACACAUCGUAUGUACCGAAUCGGGUUUUUUUGGGAAAGGGAAAAAGGGAAAGUAUUAUGUUACGCCGUUCGGAUCUGCAC | -1.28
UGGCCCUGGUGGCAUGCGGGGAGGAAGAGGUGGCCUCAUGGAUCGUGGUGGUCCUGGUGGAAUGUUCAGAGGUGGCCGUGGUGGAGACAG | -0.263

Repeated from above (sample 5):
Oligonucleotide | 7-mer Z-score
GAGAACG | 0.0932
UCUAAAG | 0.0932
ACUUCAG | -0.157
AUCCGGG | 0.157
GCCAUCC | -0.184
UUGACGC | -0.211
AGAGCUG | -0.142
UAAUGCA | 0.00254
GUAACCC | -0.289
